# Experimental data collected from several papers.
# A part holds a random share of what one study measured.
# Sequence of UniProt O00141 (whole entry, looked up): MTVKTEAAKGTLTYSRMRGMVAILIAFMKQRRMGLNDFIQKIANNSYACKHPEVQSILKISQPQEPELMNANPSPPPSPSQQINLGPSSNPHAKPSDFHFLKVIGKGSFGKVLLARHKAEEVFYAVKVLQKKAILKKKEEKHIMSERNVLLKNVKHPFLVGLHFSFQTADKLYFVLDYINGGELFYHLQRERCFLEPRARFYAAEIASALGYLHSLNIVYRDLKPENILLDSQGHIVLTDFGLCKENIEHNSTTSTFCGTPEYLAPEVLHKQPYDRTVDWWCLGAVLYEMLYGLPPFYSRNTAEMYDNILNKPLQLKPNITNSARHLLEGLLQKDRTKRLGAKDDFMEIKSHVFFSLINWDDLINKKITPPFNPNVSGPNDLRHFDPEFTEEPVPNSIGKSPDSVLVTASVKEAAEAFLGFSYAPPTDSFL
# Sequence of UniProt P27361 (whole entry, looked up): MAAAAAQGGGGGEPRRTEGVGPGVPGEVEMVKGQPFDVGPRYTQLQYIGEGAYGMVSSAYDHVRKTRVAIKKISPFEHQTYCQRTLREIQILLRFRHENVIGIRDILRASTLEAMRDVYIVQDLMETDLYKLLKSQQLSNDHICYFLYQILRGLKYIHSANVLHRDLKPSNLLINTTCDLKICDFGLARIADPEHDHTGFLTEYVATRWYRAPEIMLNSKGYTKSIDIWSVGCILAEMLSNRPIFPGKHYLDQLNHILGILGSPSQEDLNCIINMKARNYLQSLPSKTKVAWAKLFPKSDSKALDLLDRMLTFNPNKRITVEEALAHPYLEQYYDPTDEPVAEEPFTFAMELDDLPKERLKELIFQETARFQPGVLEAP
# Sequence of UniProt P20794 (whole entry, looked up): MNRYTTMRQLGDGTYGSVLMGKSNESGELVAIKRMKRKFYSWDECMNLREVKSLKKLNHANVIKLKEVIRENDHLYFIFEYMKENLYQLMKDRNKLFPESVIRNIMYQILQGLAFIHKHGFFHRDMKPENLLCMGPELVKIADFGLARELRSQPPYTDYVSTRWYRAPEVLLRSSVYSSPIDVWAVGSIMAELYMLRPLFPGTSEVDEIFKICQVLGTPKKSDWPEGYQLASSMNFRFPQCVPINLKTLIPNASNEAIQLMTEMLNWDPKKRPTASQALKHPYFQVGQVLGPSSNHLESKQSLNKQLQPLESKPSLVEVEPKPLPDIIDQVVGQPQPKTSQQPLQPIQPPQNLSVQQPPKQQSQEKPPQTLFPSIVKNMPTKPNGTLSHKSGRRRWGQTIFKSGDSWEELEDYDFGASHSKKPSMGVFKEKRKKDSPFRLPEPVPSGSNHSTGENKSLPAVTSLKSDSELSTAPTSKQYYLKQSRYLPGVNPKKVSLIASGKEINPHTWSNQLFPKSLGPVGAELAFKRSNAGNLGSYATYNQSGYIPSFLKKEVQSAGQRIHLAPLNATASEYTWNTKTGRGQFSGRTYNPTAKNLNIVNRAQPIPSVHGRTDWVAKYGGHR
# Sequence of UniProt Q06418 (whole entry, looked up): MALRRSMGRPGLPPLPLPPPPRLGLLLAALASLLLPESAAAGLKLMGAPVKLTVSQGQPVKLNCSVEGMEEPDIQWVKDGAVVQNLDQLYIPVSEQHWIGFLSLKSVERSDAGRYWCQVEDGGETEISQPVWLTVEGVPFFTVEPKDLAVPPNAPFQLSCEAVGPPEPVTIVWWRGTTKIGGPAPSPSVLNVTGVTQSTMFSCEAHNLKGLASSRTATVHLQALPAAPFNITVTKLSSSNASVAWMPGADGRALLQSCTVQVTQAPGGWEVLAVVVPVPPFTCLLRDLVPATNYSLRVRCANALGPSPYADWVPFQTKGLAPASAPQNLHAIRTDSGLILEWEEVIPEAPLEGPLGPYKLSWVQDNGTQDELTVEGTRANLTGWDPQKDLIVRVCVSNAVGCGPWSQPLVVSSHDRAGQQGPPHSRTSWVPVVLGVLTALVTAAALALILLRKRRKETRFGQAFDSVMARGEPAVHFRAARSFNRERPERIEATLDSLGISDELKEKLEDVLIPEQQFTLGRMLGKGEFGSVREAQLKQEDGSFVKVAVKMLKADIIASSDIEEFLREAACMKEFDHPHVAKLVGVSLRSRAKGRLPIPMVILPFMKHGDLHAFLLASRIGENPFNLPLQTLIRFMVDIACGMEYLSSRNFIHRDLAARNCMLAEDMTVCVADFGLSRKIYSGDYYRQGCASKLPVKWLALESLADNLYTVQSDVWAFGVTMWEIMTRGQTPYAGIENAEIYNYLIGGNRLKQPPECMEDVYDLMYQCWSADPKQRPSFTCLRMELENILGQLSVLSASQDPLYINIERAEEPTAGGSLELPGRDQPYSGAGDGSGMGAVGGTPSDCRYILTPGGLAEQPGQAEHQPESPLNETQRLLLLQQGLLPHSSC
# Sequence of UniProt O14757 (whole entry, looked up): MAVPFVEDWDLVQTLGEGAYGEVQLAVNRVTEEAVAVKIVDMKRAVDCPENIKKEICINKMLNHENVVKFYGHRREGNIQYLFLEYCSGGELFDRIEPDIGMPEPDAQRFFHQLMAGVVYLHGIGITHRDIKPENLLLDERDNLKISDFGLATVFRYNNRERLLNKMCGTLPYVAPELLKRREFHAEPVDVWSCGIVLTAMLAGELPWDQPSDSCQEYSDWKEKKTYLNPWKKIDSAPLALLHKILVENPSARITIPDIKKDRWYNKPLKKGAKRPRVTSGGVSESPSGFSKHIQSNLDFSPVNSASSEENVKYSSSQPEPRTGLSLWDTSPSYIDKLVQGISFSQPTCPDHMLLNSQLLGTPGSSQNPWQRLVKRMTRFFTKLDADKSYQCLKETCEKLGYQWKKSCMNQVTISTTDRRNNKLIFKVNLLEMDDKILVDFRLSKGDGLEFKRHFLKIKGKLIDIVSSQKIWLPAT
# Sequence of UniProt O94768 (whole entry, looked up): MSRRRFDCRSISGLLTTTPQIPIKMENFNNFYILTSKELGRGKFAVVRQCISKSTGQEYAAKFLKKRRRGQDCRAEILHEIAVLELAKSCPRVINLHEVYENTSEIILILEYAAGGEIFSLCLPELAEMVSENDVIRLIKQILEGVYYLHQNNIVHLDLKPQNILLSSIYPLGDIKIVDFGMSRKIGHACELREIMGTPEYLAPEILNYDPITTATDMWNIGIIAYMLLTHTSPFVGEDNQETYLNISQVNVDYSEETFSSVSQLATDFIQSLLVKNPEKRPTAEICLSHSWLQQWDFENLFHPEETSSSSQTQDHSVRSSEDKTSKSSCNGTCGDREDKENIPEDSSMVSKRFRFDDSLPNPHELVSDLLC
# Sequence of UniProt Q8IVH8 (whole entry, looked up): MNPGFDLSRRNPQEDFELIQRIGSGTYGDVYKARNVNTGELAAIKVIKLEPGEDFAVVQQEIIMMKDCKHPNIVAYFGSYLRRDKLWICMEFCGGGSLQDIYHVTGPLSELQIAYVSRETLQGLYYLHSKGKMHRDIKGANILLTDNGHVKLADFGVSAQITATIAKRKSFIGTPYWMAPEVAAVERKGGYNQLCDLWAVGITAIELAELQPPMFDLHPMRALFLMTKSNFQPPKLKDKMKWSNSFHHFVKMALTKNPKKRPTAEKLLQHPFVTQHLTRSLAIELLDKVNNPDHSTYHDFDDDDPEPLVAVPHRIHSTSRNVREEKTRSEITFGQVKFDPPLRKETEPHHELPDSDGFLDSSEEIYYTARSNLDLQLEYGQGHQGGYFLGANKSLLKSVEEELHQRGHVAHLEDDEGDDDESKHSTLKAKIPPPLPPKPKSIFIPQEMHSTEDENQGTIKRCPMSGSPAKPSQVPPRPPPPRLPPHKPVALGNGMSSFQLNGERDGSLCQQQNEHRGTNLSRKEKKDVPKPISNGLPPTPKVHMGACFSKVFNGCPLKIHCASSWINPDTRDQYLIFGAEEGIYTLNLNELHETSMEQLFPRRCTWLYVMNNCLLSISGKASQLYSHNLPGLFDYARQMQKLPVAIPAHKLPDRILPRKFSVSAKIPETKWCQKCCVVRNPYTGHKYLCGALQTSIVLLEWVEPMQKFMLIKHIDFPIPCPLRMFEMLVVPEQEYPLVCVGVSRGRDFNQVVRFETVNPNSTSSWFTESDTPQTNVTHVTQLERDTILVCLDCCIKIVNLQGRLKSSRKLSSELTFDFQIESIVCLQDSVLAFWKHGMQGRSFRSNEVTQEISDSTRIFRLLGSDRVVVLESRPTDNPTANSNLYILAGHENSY

# Study 1
# Cell line: A-375
# Tested at: 100 µM
# Time: 18 h
Compound,viability [%]
Cc1ccc(O)cc1,87.3
Cc1nccnc1N1CCCCC1,82.9
CCCS(=O)(=O)Nc1ccc(F)c(C(=O)c2c[nH]c3ncc(-c4ccc(Cl)cc4)cc23)c1F,30.7
C=C1CC[C@@H]2[C@](C)(CO)[C@H](O)CC[C@@]2(C)[C@@H]1C/C=C1/C(=O)OC[C@H]1O,77
Cc1onc(-c2ccccc2)c1C(=O)N[C@@H]1C(=O)N2[C@@H]1SC(C)(C)[C@@H]2C(=O)O,100
C#CC1(O)CC[C@H]2[C@@H]3CCC4=CC(=O)CC[C@@H]4[C@H]3CC[C@@]21CC (some centres unmarked),62.3
CN(C)/N=N/c1[nH]cnc1C(N)=O,77.5
Cn1nnc(-c2ccc(-c3ccc(N4C[C@H](CO)OC4=O)cc3F)cn2)n1,101
Nc1nc(NC2CC2)c2ncn([C@H]3C=C[C@@H](CO)C3)c2n1,104
NC(=O)c1cnccn1,98

# Study 2
# SMILES: CNC(=O)Nc1ccc2c(c1)CC[C@@]21OC(=O)N(CC(=O)N(Cc2ccc(F)cc2)[C@@H](C)C(F)(F)F)C1=O
# Technique: competition with immobilised ligand
# Tested at: 1 µM
target,assay,remaining binding
"Serine/threonine-protein kinase Sgk1 (SGK1, Homo sapiens, UniProt O00141)",cell-free assay,63%
"Mitogen-activated protein kinase kinase kinase kinase 3 (MAP4K3, Homo sapiens, UniProt Q8IVH8)",cell-free assay,76%
"Bone morphogenetic protein receptor type-1A (BMPR1A, Homo sapiens, UniProt P36894)",binding,91%
"Serine/threonine-protein kinase Chk1 (CHEK1, Homo sapiens, UniProt O14757)",cell-free assay,98%
"Serine/threonine-protein kinase 17B (STK17B, Homo sapiens, UniProt O94768)",cell-free assay,100%
"Mitogen-activated protein kinase 3 (MAPK3, Homo sapiens, UniProt P27361)",cell-free assay,92%
"Serine/threonine-protein kinase MAK (MAK, Homo sapiens, UniProt P20794)",binding,84%
"Tyrosine-protein kinase receptor TYRO3 (TYRO3, Homo sapiens, UniProt Q06418)",cell-free assay,81%

# Study 3
# Species: human
# Medium: microsomes or S9
# Tested at: 2 µM
# Time: 0.5 h
SMILES,remaining compound [%]
Cc1csc2c(N3CCC(S(=O)(=O)NC(C)C)C3)ncnc12 (centres unmarked),85.9
Cc1ccccc1S(=O)(=O)Nc1cccc2[nH]ccc12,42.6
Cc1ccc(OCCN2CCOCC2)c(NC(=O)c2cc3cc(C)ccc3n2C)c1,11.9
CS(=O)(=O)N(C#Cc1ccccc1F)Cc1ccccc1,7.03
Cc1n[nH]cc1CNC1(Cc2ccc(Br)cc2)CCCCC1,> 100
CCOC(=O)Cn1c(=O)n(C2CCCCC2)c(=O)c2c3c(sc21)COC(C)(C)C3,47.5
CC1(C)CC(=O)c2c(O)cc(OCC(=O)c3ccc(N4CCCC4)cc3)cc2O1,12.1
Cc1cc(C)c(S(=O)(=O)N2CCCCC2)c(C)c1N(C)S(C)(=O)=O,14.9
CC(=O)N(Cc1ccc(F)cc1)c1ccsc1C(=O)O,88.4
COc1cc(=O)[nH]cc1C(=O)N[C@@H]1CCO[C@H]1c1ccc(Cl)cc1,59.8

# Study 4
# Target: Serine/threonine-protein kinase PAK 2 (PAK2, Homo sapiens, UniProt Q13177)
# Sequence of UniProt Q13177 (whole entry, looked up): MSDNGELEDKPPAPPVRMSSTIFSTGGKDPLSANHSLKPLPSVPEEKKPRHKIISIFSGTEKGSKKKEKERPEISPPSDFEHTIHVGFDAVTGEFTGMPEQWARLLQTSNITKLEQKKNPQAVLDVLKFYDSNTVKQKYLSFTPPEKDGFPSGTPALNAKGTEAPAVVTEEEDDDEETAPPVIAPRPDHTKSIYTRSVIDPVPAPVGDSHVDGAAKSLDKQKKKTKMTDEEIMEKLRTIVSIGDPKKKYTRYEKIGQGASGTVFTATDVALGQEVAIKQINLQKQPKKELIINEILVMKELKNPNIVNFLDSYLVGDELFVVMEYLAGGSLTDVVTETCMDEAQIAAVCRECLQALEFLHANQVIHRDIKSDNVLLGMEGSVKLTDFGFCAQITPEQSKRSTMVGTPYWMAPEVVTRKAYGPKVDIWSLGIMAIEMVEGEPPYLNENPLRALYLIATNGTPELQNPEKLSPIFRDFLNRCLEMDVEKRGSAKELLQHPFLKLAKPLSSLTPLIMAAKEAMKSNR
# Observed: enzyme activity
# Action: inhibitor
# Tested at: 0.5 µM
# Relative to: control
Compound,remaining activity
Cc1ccc(Nc2nccc(N(C)c3ccc4c(C)n(C)nc4c3)n2)cc1S(N)(=O)=O,98.9%
CN(C)c1ccc(C=C2C(=O)Nc3ccccc32)cc1,102%
CC(C)[C@H](CO)Nc1nc(Nc2cc(N)cc(Cl)c2)c2ncn(C(C)C)c2n1,95.5%
Nc1ncnc2n[nH]c(Nc3ccc(F)cc3)c12,103%
Nc1[nH]nc2nc3ccccc3nc12,104%
Nc1ccc2ncnc(NCCc3ccc(Oc4ccccc4)cc3)c2c1,102%
CCOC(=O)c1c(C)[nH]c(/C=C2\C(=O)Nc3ccccc32)c1C,92.5%
O=C(CCCc1ccc(-c2ccccc2F)cc1)Nc1ccc(O)cc1,101%
OCC(O)CCON=C1C(c2c(O)[nH]c3ccccc23)=Nc2ccccc21 (centres unmarked),82.1%
COc1cc2nccc(Oc3ccc(NC(=S)NC(=O)c4ccccc4C)cc3)c2cc1OC,91.2%
Oc1ccc(-c2nc(-c3ccncc3)c(-c3ccc(F)cc3)[nH]2)cc1,94.1%
O=C1NC(=O)C(c2cn(CCCO)c3ncccc23)=C1c1cnccn1,105%
O=C1NC(=O)C(c2cn(CCCn3ccnc3)c3ccccc23)=C1Nc1ccccc1,88.5%

# Excerpt of the above (study 2):
target,assay,remaining binding
"Tyrosine-protein kinase receptor TYRO3 (TYRO3, Homo sapiens, UniProt Q06418)",cell-free assay,81%
"Mitogen-activated protein kinase kinase kinase kinase 3 (MAP4K3, Homo sapiens, UniProt Q8IVH8)",cell-free assay,76%
